Measurements from different studies.
Each line is one published result; not all experiments were run side by side. Values joined by “and” are separate records of one study, mostly repeats; a detail may differ. ± marks the error that the study gave. Converted amounts (≈) assume the structure as drawn.
Sequence of UniProt Q92995 (whole entry, looked up): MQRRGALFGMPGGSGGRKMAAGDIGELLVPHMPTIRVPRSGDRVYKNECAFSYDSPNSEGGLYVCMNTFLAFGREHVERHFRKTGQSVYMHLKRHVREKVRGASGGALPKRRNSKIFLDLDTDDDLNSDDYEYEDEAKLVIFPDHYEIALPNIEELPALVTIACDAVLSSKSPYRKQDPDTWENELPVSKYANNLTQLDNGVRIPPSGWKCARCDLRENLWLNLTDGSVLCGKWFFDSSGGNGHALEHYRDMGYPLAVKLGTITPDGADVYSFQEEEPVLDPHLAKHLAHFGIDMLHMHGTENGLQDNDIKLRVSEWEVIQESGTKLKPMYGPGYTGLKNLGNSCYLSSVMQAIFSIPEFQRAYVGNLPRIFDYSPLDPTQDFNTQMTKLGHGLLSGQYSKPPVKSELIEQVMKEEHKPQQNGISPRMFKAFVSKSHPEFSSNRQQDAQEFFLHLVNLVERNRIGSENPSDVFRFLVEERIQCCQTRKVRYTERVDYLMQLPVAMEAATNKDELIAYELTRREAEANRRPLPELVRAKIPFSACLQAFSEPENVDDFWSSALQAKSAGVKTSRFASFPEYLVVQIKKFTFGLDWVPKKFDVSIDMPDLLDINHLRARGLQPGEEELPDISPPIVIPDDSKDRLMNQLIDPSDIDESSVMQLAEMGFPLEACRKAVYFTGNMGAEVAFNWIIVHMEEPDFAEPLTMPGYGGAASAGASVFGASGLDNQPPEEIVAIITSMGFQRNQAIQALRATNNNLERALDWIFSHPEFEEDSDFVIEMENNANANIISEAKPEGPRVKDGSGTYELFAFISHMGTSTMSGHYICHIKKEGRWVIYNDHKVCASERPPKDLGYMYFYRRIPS
Sequence of UniProt P34995 (whole entry, unmodified, looked up): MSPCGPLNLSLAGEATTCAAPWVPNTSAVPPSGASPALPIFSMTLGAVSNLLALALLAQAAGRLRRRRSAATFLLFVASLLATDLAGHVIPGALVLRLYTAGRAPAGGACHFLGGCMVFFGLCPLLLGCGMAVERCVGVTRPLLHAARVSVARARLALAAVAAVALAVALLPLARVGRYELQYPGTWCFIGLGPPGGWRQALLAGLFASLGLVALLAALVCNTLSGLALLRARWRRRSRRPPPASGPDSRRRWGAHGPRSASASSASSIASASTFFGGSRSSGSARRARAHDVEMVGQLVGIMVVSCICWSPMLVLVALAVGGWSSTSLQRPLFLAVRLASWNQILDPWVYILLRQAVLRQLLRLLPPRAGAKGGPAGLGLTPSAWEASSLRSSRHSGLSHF
Sequence of UniProt Q9UBN7 (whole entry, looked up): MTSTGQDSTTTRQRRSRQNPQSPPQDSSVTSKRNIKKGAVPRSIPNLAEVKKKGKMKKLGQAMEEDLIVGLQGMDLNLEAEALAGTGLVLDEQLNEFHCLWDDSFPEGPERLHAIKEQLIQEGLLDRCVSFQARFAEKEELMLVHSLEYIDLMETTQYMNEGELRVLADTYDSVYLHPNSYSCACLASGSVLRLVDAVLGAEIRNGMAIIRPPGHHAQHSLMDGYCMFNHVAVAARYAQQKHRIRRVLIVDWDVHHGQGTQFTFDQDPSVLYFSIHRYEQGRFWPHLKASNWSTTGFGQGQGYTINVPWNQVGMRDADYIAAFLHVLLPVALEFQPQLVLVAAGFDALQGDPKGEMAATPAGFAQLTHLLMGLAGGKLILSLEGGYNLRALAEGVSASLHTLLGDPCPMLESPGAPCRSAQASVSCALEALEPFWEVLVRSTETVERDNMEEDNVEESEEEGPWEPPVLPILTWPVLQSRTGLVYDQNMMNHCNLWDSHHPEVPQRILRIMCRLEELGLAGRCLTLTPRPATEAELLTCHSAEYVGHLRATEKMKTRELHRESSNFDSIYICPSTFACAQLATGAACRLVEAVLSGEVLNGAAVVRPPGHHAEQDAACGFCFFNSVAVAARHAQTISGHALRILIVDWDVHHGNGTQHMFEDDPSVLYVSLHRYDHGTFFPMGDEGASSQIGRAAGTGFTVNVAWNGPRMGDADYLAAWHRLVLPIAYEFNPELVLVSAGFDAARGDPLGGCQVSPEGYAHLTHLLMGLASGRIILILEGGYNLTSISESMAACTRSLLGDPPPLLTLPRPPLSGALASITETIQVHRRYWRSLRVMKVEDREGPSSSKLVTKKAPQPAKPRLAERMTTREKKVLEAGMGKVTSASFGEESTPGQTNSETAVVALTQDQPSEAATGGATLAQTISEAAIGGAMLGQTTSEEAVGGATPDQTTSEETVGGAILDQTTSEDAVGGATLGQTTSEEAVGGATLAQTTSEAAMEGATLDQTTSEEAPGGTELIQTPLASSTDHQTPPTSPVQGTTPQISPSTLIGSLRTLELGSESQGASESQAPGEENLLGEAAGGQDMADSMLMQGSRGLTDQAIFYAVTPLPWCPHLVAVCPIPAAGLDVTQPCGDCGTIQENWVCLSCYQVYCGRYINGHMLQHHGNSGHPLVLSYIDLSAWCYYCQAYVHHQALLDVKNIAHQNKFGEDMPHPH
Sequence of UniProt O75716 (whole entry, looked up): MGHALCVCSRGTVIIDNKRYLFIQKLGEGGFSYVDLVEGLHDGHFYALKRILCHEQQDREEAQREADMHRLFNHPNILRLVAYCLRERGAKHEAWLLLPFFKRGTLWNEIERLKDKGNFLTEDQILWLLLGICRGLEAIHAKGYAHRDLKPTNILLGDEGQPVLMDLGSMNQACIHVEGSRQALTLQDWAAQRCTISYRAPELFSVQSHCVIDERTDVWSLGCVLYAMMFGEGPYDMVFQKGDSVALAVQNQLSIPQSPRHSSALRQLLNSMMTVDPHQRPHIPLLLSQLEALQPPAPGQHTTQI

Compound	target or system	assay	system	setting	how to read	quantity	result
CC(C)[C@@H]1NC(=O)[C@@H](CCCCN)NC(=O)[C@H]([C@@H](C)O)NC(=O)[C@@H](CCCN)NC(=O)[C@H](Cc2ccccc2)NC(=O)[C@@H](Cc2ccccc2)NC1=O	Naegleria fowleri			trophozoites		IC50	> 16 µg/mL
CC[C@@H]1[C@H](F)C(=O)N[C@@H]1COc1nccc2cc(C(N)=O)c(OC)cc12	STK16 (Homo sapiens, UniProt O75716)	ATP-site probe binding, ActivX profiling	THP-1 cell lysate	0.04 mM, Lys2 site		inhibition	13.8%
CC(C)[C@@H]1NC(=O)[C@@H](CCN)NC(=O)[C@H]([C@@H](C)O)NC(=O)[C@@H](CCCN)NC(=O)[C@H](Cc2ccccc2)NC(=O)[C@@H](Cc2ccccc2)NC1=O	Naegleria fowleri			trophozoites		IC50	> 16 µg/mL
CCCCCOc1ccc(-c2ccc(-c3ccc(C(=O)N[C@H]4C[C@@H](O)[C@@H](OCC[N+](C)(C)C)NC(=O)[C@@H]5[C@@H](O)[C@@H](C)CN5C(=O)[C@H]([C@@H](C)O)NC(=O)[C@H]([C@H](O)[C@@H](O)c5ccc(O)cc5)NC(=O)[C@@H]5C[C@@H](O)CN5C(=O)[C@H]([C@@H](C)O)NC4=O)cc3)cc2)cc1	Candida glabrata		5592, neutropenic mouse, disseminated candidiasis	dose not given, average 24 h AUC over 7 days		total AUC/MIC for 1 log kill	114
Cn1cc(-c2ccc(-c3cncc(Cl)c3N3CCC4(CCNC4=O)CC3)cc2)cn1	COLO 205	gene expression, microarray, measured: GADD45B mRNA		concentration not given, 6 h	baseline: untreated cells	log2 fold change	1.27
CC(=O)NC[C@H]1CN(c2ccc(N3CCOCC3)c(F)c2)C(=O)O1	Streptococcus pyogenes		10 isolates	pH 7.0		MIC50	1 µg/mL (≈ 2.96 µM)
O=C(O)CCOc1ccccc1	Protein deacetylase HDAC6, ZnF-UBD domain (HDAC6, Homo sapiens, UniProt Q9UBN7)					Kd	> 1000 µM
CC1=NN(c2cccc(C)c2)C(=O)C1=NNc1ccc(S(N)(=O)=O)cc1	Saccharomyces cerevisiae			50 µg/mL		glucose uptake	36.9%
O=C(/C=C/c1cccc(S(=O)(=O)Nc2ccccc2)c1)NO	Taenia solium	trypan blue staining		IC50, 24 h		killed cysts	70%
CCCCC[C@H](O)/C=C/[C@H]1[C@H](O)CC(=O)[C@@H]1C/C=C\CCCC(=O)O	PTGER1 (Homo sapiens, UniProt P34995, L215A)	IP1 accumulation, agonist	AD293	EP1 L215A mutant		EC50	0.00899 µM
C#CCON=C1C=CC(=C(C#N)c2ccccc2)C=C1	Candidozyma auris		ATCC MYA-5001	concentration not given		antifungal activity	active
CC1=NOC(=O)C1=NNc1ccc(S(N)(=O)=O)cc1	Saccharomyces cerevisiae			500 µg/mL		glucose uptake	29%
CN[C@H](CC(C)C)C(=O)N[C@H]1C(=O)N[C@@H](CC(N)=O)C(=O)N[C@H]2C(=O)N[C@H]3C(=O)N[C@H](C(=O)N[C@H](C(=O)O)c4cc(O)cc(O)c4-c4cc3ccc4O)[C@H](O)c3ccc(c(Cl)c3)Oc3cc2cc(c3O[C@@H]2O[C@H](CO)[C@@H](O)[C@H](O)[C@H]2O[C@H]2C[C@](C)(N)[C@H](O)[C@H](C)O2)Oc2ccc(cc2Cl)[C@H]1O	Staphylococcus aureus		USA300 LAC, female ICR mice, wound infection, full-thickness wound			bacterial load	6.23 log CFU/g and 7.21 log CFU/g and 7 log CFU/g and 7.4 log CFU/g and 4.98 log CFU/g
CC1=NCCNC(=O)C1=NNc1ccc(S(N)(=O)=O)cc1	Saccharomyces cerevisiae			500 µg/mL		glucose uptake	39.6%
Cc1ccc(NC(=O)N2Cc3[nH]cnc3C[C@H]2c2nc(-c3ccc4c(c3)OCO4)no2)cc1	Caenorhabditis elegans		N2	6.25 µM		mean lifespan	21.2 days
N=C(N)c1ccc(OCCCCCOc2ccc(C(=N)N)cc2)cc1	Escherichia coli	checkerboard	mcr-3 polymyxin-resistant	concentration not given, with: rifampicin		MIC of compound in combination	50 µg/mL
O=C(O)Cn1cnc2ccccc2c1=O	Ubiquitin carboxyl-terminal hydrolase 13, ZnF-UBD domain (USP13, Homo sapiens, UniProt Q92995)					Kd	860 µM

Compound	target or system	assay	system	setting	how to read	quantity	result
c1cnc2c(c1)ccc1cccnc12	Taenia solium	trypan blue uptake	cysts	25 µg/mL		cysticidal efficacy	100%
Nc1nc(-c2ccccc2)nc2[nH]nc(Nc3ccc(C(F)(F)F)cc3)c12	coxsackievirus B3		31-1-93, NMRI mice, CVB3 chronic myocarditis	oral, 100 mg/kg twice daily, day 19, dosed days 1 to 7, score scale 0 to 7	direction not given	clinical score	0.11
CN[C@H](CC(C)C)C(=O)N[C@H]1C(=O)N[C@@H](CC(N)=O)C(=O)N[C@H]2C(=O)N[C@H]3C(=O)N[C@H](C(=O)N[C@H](C(=O)O)c4cc(O)cc(O)c4-c4cc3ccc4O)[C@H](O)c3ccc(c(Cl)c3)Oc3cc2cc(c3O[C@@H]2O[C@H](CO)[C@@H](O)[C@H](O)[C@H]2O[C@H]2C[C@](C)(N)[C@H](O)[C@H](C)O2)Oc2ccc(cc2Cl)[C@H]1O	Streptococcus pyogenes		40 clinical isolates			MIC50	0.5 µg/mL (≈ 0.345 µM)
CC1=NN(c2cc(Cl)ccc2Cl)C(=O)C1=NNc1ccc(S(N)(=O)=O)cc1	Saccharomyces cerevisiae			50 µg/mL		glucose uptake	46%
CC1(C)S[C@@H]2[C@H](NC(=O)[C@H](N)c3ccccc3)C(=O)N2[C@H]1C(=O)O	Streptococcus viridans		10 clinical isolates			MIC50	0.25 µg/mL (≈ 0.715 µM)
CC1=NN(c2ccc(C)cc2)C(=O)C1=NNc1ccc(S(N)(=O)=O)cc1	Saccharomyces cerevisiae			200 µg/mL		glucose uptake	63.7%
CC(C)n1ncc2c(C(=O)NCC3(C)CNC3)cc(C3CC3)nc21	Enterovirus D68	viral replication	RD, recombinant wild-type US/MO/14-18947	0.1 µM	baseline: untreated	plaque area	90.6% and 88.8%
Cc1cc(OC(C)C)ccc1C(=O)C(C)(C)NC(=O)c1sccc1C	Botrytis cinerea	conidial germination	B05.10	72 h, 20 °C		EC50	0.4 µg/mL
C=C[C@]1(C)C[C@@H](OC(=O)CS[C@@H]2C[C@H]3CC[C@@H](C2)N3C)[C@]2(C)[C@H](C)CC[C@]3(CCC(=O)[C@H]32)[C@@H](C)[C@@H]1O	Streptococcus pyogenes		40 clinical isolates			MIC50	0.0312 µg/mL (≈ 0.0604 µM)
COC(=O)[C@H](Cc1c[nH]c2ccccc12)NCc1cc2ccccc2nc1OC	Pseudomonas aeruginosa			128 µg/mL, without pentamidine	baseline: control	growth	88.4%
CC1=NN(c2ccccc2)C(=O)C1=NNc1ccc(S(N)(=O)=O)cc1	Saccharomyces cerevisiae			10 µg/mL		glucose uptake	17.883 ± 0.000684%
O=C(N1CCc2ccccc21)n1ccnn1	Oryza sativa			concentration not given		plant height	20.1 cm
CC1=NN(c2ccccn2)C(=O)C1=NNc1ccc(S(N)(=O)=O)cc1	Saccharomyces cerevisiae			200 µg/mL		glucose uptake	17%
N=C(N)c1ccc(OCCC(CCOc2ccc(C(=N)N)cc2)c2ccccc2)cc1 (stereo not drawn)	Escherichia coli	checkerboard	mcr-3 polymyxin-resistant	unit not given, with: rifampicin	lower = stronger synergy	FICI	≤ 0.063
CC1=NNC(=S)NC(=O)C1/N=N/c1ccc(S(N)(=O)=O)cc1 (stereo not drawn)	Saccharomyces cerevisiae			10 µg/mL		glucose uptake	43.796 ± 0.000876%
O=C1C(NCCc2ccc(O)cc2)=CC2=NCCc3c[nH]c1c32	Saccharomyces cerevisiae	cell growth, liquid culture	BY4741	100 µM, 24 h		inhibition	62.5%

Excerpt of the above:
Compound	target or system	assay	system	setting	how to read	quantity	result
CC1=NN(c2cccc(C)c2)C(=O)C1=NNc1ccc(S(N)(=O)=O)cc1	Saccharomyces cerevisiae			50 µg/mL		glucose uptake	36.9%
O=C(/C=C/c1cccc(S(=O)(=O)Nc2ccccc2)c1)NO	Taenia solium	trypan blue staining		IC50, 24 h		killed cysts	70%
